Measured values pooled from the literature.
Values joined by “and” are separate records of one study, mostly repeats; a detail may differ. ± gives the spread as reported.
UCHL1: Ubiquitin carboxyl-terminal hydrolase isozyme L1 (UCHL1, Homo sapiens, UniProt P09936)
Voltage-dependent P/Q-type calcium channel subunit alpha-1A: Voltage-dependent P/Q-type calcium channel subunit alpha-1A (Homo sapiens, UniProt O00555)
ADRA2C: Alpha-2C adrenergic receptor (ADRA2C, Homo sapiens, UniProt P18825)
TOP2B: DNA topoisomerase 2-beta (TOP2B, Homo sapiens, UniProt Q02880)
BEST1: BEST1 (Homo sapiens, UniProt O76090)

SMILES | target | test | test system | conditions | scale | measurement | value
COc1ccc(C)cc1CN1CCC(c2cc3ncccc3cn2)CC1 | Catenin beta-1, residues 141-305 (CTNNB1, Homo sapiens, UniProt P35222) | ITC | – | 25 °C | – | ΔH | -1.5 kcal/mol
Cc1cccc(N2CC(C(=O)O)CC2=O)c1 (stereo not drawn) | Leucine-rich repeat serine/threonine-protein kinase 2, WD40 domain (LRRK2, Homo sapiens, UniProt Q5S007) | binding, affinity selection mass spectrometry | – | – | reference: other proteins in batch | log fold enrichment | 0.0948
O=C(O)c1ccc(Nc2ncc3c(n2)-c2ccc(Cl)cc2C(c2c(F)cccc2F)=NC3)cc1 | human IRAK4(h) | kinase activity | – | 1 µM | – | remaining activity | 97%
C#CC(C)(C)NC(=O)CN(c1ccc(OC)cc1)S(=O)(=O)c1ccccc1 | UCHL1 | covalent, intact protein LC-MS | – | 12.5 µM | – | labelling | 18.9%
Nc1c(Br)cc(Br)cc1CN[C@H]1CC[C@H](O)CC1 | Voltage-dependent P/Q-type calcium channel subunit alpha-1A | ion current, antagonist | HEK293 | 3 µM | – | inhibition | 36%
CC=C(C#N)C(=O)N1CCC[C@@H](n2nc(-c3ccc(Oc4ccccc4)cc3)c3c(N)ncnc32)C1 | Tyrosine-protein kinase BTK (BTK, Homo sapiens, UniProt Q06187) | fluorescence competition | – | room temperature | – | residence time | 31.8 ± 7.8 min
C#CCCC1(CC[C@H](NC(=O)NCCCCCCNC(=O)NCCNC(=O)COc2cccc([C@@H](CCc3ccc(OC)c(OC)c3)OC(=O)[C@@H]3CCCCN3C(=O)C(=O)C(C)(C)CC)c2)C(N)=O)N=N1.O=C(O)C(F)(F)F | Peptidyl-prolyl cis-trans isomerase FKBP1A (FKBP1A, Homo sapiens, UniProt P62942) | photoaffinity labeling, in-gel fluorescence, measured: Alexa Fluor 647 click label | – | 0.016 µM, UV irradiation 365 nm | higher = more labeling | probe labeling fluorescence | 586 a.u.
COc1cc(-c2cncc3c2CN(C)Cc2cc(N4CCNCC4)ccc2-3)cc(OC)c1OC | Tyrosine-protein kinase BTK (BTK, Homo sapiens, UniProt Q06187, R28H) | kinase activity | – | 1 µM, together with: ATP 10 µM | reference: DMSO control | remaining activity | 102%
CC(C)(C)c1nc(-c2cccc(N(Cc3cc(C(=O)[O-])ccc3OP(=O)([O-])[O-])S(=O)(=O)c3c(F)cccc3F)c2F)c(-c2ccnc(N)n2)s1.[Na+].[Na+].[Na+] | Alkaline phosphatase, placental type (Homo sapiens, UniProt P05187) | substrate | – | 100 µM, pH 7.6, 37 °C | – | drug formation rate | 1.26 pmol/min
Cn1c(=O)c2[nH]cnc2n(C)c1=O | Voltage-dependent P/Q-type calcium channel subunit alpha-1A | ion current, antagonist | HEK293 | 10 µM | – | inhibition | -3%
Cc1cc(Oc2ncccc2CN2CCN(c3ccccc3C(F)(F)F)CC2)ccc1-c1c(C)c(=O)[nH]c(=O)n1C | ADRA2C | binding, radioligand binding | – | together with: [3H]rauwolscine | reference: Ki alpha2B over Ki alpha2C | selectivity ratio | 6
CN(C)CCCN1c2ccccc2Sc2ccc(Cl)cc21 | Voltage-dependent P/Q-type calcium channel subunit alpha-1A | ion current, antagonist | HEK293 | 3 µM | – | inhibition | 46%
CCN1CCC[C@H]1CNC(=O)c1c(O)c(Cl)cc(Cl)c1OC | Probable G-protein coupled receptor 160 (GPR160, Homo sapiens, UniProt Q9UJ42) | β-arrestin recruitment, TANGO luminescence, measured: GPR160 | – | concentration not given | reference: basal luminescence | log2 fold change | 0.251
Nc1nc2c(ncn2[C@@H]2O[C@H](COP(=O)(O)O)[C@@H](O)[C@H]2O)c(=O)[nH]1 | GUK1 (Homo sapiens, UniProt Q16774, R41A) | enzyme activity, NADH-coupled | – | 31.25 µM | – | reaction rate | 0.982 s⁻¹ and -0.301 s⁻¹ and 1.13 s⁻¹
CCC(C)(C)C(=O)O[C@H]1C[C@@H](C)C=C2C=C[C@H](C)[C@H](CC[C@@H]3C[C@@H](O)CC(=O)O3)[C@H]21 | Voltage-dependent P/Q-type calcium channel subunit alpha-1A | ion current, antagonist | HEK293 | 3 µM | – | inhibition | 59%
CCCC[C@H](NC(=O)[C@H](C)c1c(C)[nH]c2ccc(O)cc12)c1ncc(-c2cc3ccccc3nc2OC)[nH]1 | Prostaglandin E2 receptor EP1 subtype (PTGER1, Homo sapiens, UniProt P34995) | – | – | – | – | Hill coefficient | 0.9
O=c1nc(SCc2cc(F)cc(C(F)(F)F)c2)nc(SCc2csc3ccc(Cl)cc23)[nH]1 | TOP2B | decatenation | – | 125 µM | – | mean decatenated DNA | 0%
CC1CCCCC1NC(=O)C(C#N)=Cc1cccc(O)c1 (stereo not drawn) | UCHL1 | covalent, intact protein LC-MS | – | 12.5 µM | – | labelling | 19.4%
O=c1nc(SCc2cc(F)cc(C(F)(F)F)c2)nc(SCc2ccc3nc(OCCN4CCOCC4)ccc3c2)[nH]1 | DNA topoisomerase 2-alpha (TOP2A, Homo sapiens, UniProt P11388) | DNA cleavage | – | 7.8 µM, replicate 2 | – | linear DNA | 0%
O=S(=O)(Nc1cc(-n2cccc2)ccc1F)c1cc(Cl)cc(Cl)c1O | malate dehydrogenase | enzyme activity, inhibitor | – | 40 µM, pH 7.0, 1% DMSO, aggregation counter-screen | – | remaining activity | 67%
CCN1CCN(c2cc(N3CCN(CC)CC3)nc(NCCNc3ccnc4cc(Cl)ccc34)n2)CC1 | Hepatocyte nuclear factor 4-alpha (HNF4A, Homo sapiens, UniProt P41235) | reporter gene, Gal4 hybrid reporter | – | 20 µM | reference: vehicle | activation | 1.61 fold

SMILES | target | test | test system | conditions | scale | measurement | value
Cc1nc(CSc2nc(SCc3ccc(C(C)C)cc3)nc(=O)[nH]2)cs1 | TOP2B | decatenation | – | 31.25 µM, replicate 2 | – | decatenated DNA | 44.5%
O=C(O)C1=CCNCC1 | BEST1 | whole-cell patch clamp | HEK293 transiently expressing channel | concentration not given, membrane potential -100 mV | – | current density | -132 pA/pF and -26.1 pA/pF and -28.2 pA/pF and -68.4 pA/pF and -59.3 pA/pF and -21.1 pA/pF
CNC(=O)Cn1ccc2ccc(NC(=O)C(C#N)=Cc3ccco3)cc21 | UCHL1 | covalent, intact protein LC-MS | – | 12.5 µM | – | labelling | 8.83%
N#Cc1ccc(S(=O)(=O)n2nc(SCc3ccc(Cl)cc3)nc2N)cc1 | Lysophospholipase-like protein 1 (Mus musculus, UniProt Q3UFF7) | enzyme activity, activator, gel-based ABPP | purified protein | concentration not given, together with: FP-rhodamine | reference: DMSO | probe labeling increase | 2.2 fold
CC(C)Cc1ccc(CNS(=O)(=O)c2ccccc2C(=O)O)cc1 | malate dehydrogenase | enzyme activity, inhibitor | – | 200 µM, pH 7.0, 1% DMSO, aggregation counter-screen | – | remaining activity | 93%
c1coc(-c2n[nH]cc2-c2ccnc3ccccc23)c1 | Extracellular signal-regulated kinase 1 (CEK1, Candida albicans, UniProt Q5A1D3) | kinase binding, MIB/MS competition | Candida albicans lysate | 1 µM | reference: DMSO, negative = stronger binding | log2 fold change | -0.31
Cc1cc(Oc2ncccc2CN2CCN(c3ccc(C(F)(F)F)cc3[N+](=O)[O-])CC2)ccc1-c1c(C)c(=O)[nH]c(=O)n1C | ADRA2C | binding, radioligand binding | – | together with: [3H]rauwolscine | reference: Ki alpha2A over Ki alpha2C | selectivity ratio | 4
CC(=O)N[C@@H](CC(C)C)C(=O)N[C@@H](CC(=O)O)C(=O)N1CCC[C@H]1C(=O)N1CCC[C@H]1C(=O)N[C@@H](CC(C)C)C(=O)N[C@@H](Cc1c[nH]cn1)C(=O)N[C@@H](CO)C(=O)N[C@H](C(=O)N[C@@H](C)C(N)=O)[C@@H](C)OP(=O)(O)O | Serine/threonine-protein kinase PLK1 (PLK1, Homo sapiens, UniProt P53350) | polo-box domain binding, isothermal titration calorimetry | – | concentration not given, 25 °C | – | binding entropy | -24.3 cal/(mol·K)
Cc1cc(-c2ccnc3[nH]cc(F)c23)cc(F)c1[C@@]1(O)[C@H](C)CN(C(=O)CN)C[C@@H]1C | Serine/threonine-protein kinase LATS1 (LATS1, Homo sapiens, UniProt O95835) | ATP/ADP probe binding, KiNativ | HEK293T lysate | 0.1 µM, Lys1 peptide ALYATKTLR | – | probe labelling inhibition | 21%
CC1=C(/C=C/C(C)=C/C=C/C(C)=C/C=O)C(C)(C)CCC1 | Rhodopsin (RHO, Bos taurus, UniProt P02699, I189T) | retinal entry, Trp FRET | lipid bicelles | 28 °C, I189T mutant | reference: wild-type rhodopsin | relative kon | 0.73 ± 0.18
CCCCC(=O)NN(CC)c1cc(C)c(C#N)c(Cl)n1 | UCHL1 | covalent, intact protein LC-MS | – | 12.5 µM | – | labelling | 5.73%
Cc1ccc(N2CCN(Cc3cccnc3Oc3ccc(-c4c(C)c(=O)[nH]c(=O)n4C)c(C)c3)CC2)cc1C | ADRA2C | binding, radioligand binding | – | together with: [3H]rauwolscine | reference: Ki alpha2B over Ki alpha2C | selectivity ratio | 2
Cc1ccc2c(c1)NC(=O)C2CC(=O)NCCNC(=O)CCn1c(=O)[nH]c(=O)c2ccccc21 (stereo not drawn) | Poly [ADP-ribose] polymerase tankyrase-1 (TNKS, Homo sapiens, UniProt O95271) | enzyme activity, inhibitor | – | – | – | ligand efficiency | 0.41
Cc1cc(C(=O)CCl)c(F)cc1F | UCHL1 | covalent, intact protein LC-MS | – | 12.5 µM | – | labelling | 20.3%
NCCNC(=O)c1ccc(Cl)cn1 | Voltage-dependent P/Q-type calcium channel subunit alpha-1A | ion current, antagonist | HEK293 | 3 µM | – | inhibition | 13%
COC(=O)c1cn(C)c2ccc(-c3cccnc3)cc12 | Vitamin D3 receptor (VDR, Homo sapiens, UniProt P11473) | reporter gene, Gal4 hybrid reporter | – | 10 µM | reference: vehicle | activation | 1.43 fold
O=C(O)c1ccc([N+](=O)[O-])cc1 | BEST1 | whole-cell patch clamp | HEK293 transiently expressing channel | concentration not given, membrane potential -60 mV | – | current density | -24.6 pA/pF and -58.5 pA/pF and -59.5 pA/pF and -73.3 pA/pF and -41.8 pA/pF and -25.2 pA/pF and -42.4 pA/pF
Nc1ncnc2c1ncn2[C@@H]1O[C@H](CSCC[C@H](N)C(=O)O)[C@@H](O)[C@H]1O | O-methyltransferase (Sorghum bicolor, UniProt A0A1B6PFV1) | – | – | concentration not given, together with: RSV+ | – | ΔH of binding | -4.07 ± 0.137 kcal/mol
NCCCCC(=O)O | Sodium- and chloride-dependent taurine transporter (SLC6A6, Homo sapiens, UniProt P31641, Y138A) | binding, microscale thermophoresis | – | 32.7 nM, fitted curve | higher = more binding | fraction bound | 0
CC[C@@H]1[C@H](F)C(=O)N[C@@H]1COc1nccc2cc(C(N)=O)c(OC)cc12 | Serine/threonine-protein kinase 38-like (STK38L, Homo sapiens, UniProt Q9Y2H1) | ATP-site probe binding, ActivX profiling | THP-1 cell lysate | 0.01 mM, Lys2 site | – | inhibition | 2.6%
O=c1ccc2c(OCCCCOc3ccccc3)c3ccoc3cc2o1 | Potassium voltage-gated channel subfamily A member 3 (Kcna3, Mus musculus, UniProt P16390) | potassium current, blocker | L929 | – | – | Hill coefficient | 1.8

For quick reference, copied from above:
SMILES | target | test | test system | conditions | scale | measurement | value
O=C(O)C1=CCNCC1 | BEST1 | whole-cell patch clamp | HEK293 transiently expressing channel | concentration not given, membrane potential -100 mV | – | current density | -132 pA/pF and -26.1 pA/pF and -28.2 pA/pF and -68.4 pA/pF and -59.3 pA/pF and -21.1 pA/pF
N#Cc1ccc(S(=O)(=O)n2nc(SCc3ccc(Cl)cc3)nc2N)cc1 | Lysophospholipase-like protein 1 (Mus musculus, UniProt Q3UFF7) | enzyme activity, activator, gel-based ABPP | purified protein | concentration not given, together with: FP-rhodamine | reference: DMSO | probe labeling increase | 2.2 fold
Cc1nc(CSc2nc(SCc3ccc(C(C)C)cc3)nc(=O)[nH]2)cs1 | TOP2B | decatenation | – | 31.25 µM, replicate 2 | – | decatenated DNA | 44.5%
C#CCCC1(CC[C@H](NC(=O)NCCCCCCNC(=O)NCCNC(=O)COc2cccc([C@@H](CCc3ccc(OC)c(OC)c3)OC(=O)[C@@H]3CCCCN3C(=O)C(=O)C(C)(C)CC)c2)C(N)=O)N=N1.O=C(O)C(F)(F)F | Peptidyl-prolyl cis-trans isomerase FKBP1A (FKBP1A, Homo sapiens, UniProt P62942) | photoaffinity labeling, in-gel fluorescence, measured: Alexa Fluor 647 click label | – | 0.016 µM, UV irradiation 365 nm | higher = more labeling | probe labeling fluorescence | 586 a.u.
